{"data": "Experimental data collected from several papers", "CASP7": "Caspase-7 (CASP7, Homo sapiens, UniProt P55210)", "T1": "G-quadruplex DNA, G-quadruplex (Homo sapiens); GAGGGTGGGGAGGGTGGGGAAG", "note": "“And” joins repeats or separate records; there may be more than shown. ± gives the spread as reported.", "sequence of UniProt Q13148 (whole entry, looked up)": "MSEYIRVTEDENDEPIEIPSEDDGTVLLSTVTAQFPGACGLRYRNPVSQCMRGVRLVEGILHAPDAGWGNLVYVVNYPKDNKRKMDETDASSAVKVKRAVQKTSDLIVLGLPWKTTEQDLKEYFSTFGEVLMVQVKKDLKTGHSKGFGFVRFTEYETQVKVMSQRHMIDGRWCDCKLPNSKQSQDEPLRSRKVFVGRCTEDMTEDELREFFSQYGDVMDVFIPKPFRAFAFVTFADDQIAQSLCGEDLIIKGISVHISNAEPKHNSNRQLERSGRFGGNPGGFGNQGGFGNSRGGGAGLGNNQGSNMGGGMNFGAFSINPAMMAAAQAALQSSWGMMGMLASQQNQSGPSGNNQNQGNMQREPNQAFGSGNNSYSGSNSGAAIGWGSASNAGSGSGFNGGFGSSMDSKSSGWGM", "sequence of UniProt P55210 (whole entry, looked up)": "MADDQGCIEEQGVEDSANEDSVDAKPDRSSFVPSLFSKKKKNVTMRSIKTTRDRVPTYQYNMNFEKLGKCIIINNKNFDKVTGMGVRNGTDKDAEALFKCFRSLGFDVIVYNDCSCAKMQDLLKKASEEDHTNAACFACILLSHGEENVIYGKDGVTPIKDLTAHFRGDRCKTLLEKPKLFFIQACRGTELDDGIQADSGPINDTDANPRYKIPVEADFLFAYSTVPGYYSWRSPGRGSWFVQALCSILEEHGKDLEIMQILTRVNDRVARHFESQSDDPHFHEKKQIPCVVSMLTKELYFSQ", "sequence of UniProt P34972 (whole entry, looked up)": "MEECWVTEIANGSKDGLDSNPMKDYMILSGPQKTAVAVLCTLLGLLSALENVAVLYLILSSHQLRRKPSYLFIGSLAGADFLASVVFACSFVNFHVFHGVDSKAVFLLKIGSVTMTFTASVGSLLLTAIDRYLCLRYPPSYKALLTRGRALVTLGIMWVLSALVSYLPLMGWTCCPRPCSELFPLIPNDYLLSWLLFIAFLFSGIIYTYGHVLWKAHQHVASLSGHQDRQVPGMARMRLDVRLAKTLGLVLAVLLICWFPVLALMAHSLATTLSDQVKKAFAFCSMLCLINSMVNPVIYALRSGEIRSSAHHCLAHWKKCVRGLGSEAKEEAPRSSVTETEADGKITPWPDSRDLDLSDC", "sequence of UniProt P19491 (whole entry, looked up)": "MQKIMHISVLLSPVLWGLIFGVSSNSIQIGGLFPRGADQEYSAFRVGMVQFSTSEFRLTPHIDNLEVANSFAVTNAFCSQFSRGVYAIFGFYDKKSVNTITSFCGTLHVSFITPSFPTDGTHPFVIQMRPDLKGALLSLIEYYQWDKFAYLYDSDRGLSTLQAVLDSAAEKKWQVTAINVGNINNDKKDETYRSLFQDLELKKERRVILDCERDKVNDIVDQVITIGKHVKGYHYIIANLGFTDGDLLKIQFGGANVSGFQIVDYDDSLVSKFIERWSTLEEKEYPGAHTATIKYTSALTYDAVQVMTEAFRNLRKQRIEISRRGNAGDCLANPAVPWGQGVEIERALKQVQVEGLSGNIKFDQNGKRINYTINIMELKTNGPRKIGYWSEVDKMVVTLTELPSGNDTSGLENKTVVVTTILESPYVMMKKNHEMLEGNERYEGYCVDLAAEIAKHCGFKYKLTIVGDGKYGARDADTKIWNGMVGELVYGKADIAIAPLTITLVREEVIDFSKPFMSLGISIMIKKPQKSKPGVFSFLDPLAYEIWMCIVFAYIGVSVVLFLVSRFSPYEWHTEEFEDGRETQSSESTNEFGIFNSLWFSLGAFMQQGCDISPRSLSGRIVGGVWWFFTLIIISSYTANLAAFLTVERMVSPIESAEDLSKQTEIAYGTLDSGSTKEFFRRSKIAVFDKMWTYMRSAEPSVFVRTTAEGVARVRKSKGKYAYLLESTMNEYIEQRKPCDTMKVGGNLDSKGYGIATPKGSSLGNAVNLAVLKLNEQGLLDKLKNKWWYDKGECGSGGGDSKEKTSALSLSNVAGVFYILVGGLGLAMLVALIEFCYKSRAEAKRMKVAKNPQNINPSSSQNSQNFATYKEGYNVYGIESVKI", "sequence of UniProt O75874 (whole entry, unmodified, looked up)": "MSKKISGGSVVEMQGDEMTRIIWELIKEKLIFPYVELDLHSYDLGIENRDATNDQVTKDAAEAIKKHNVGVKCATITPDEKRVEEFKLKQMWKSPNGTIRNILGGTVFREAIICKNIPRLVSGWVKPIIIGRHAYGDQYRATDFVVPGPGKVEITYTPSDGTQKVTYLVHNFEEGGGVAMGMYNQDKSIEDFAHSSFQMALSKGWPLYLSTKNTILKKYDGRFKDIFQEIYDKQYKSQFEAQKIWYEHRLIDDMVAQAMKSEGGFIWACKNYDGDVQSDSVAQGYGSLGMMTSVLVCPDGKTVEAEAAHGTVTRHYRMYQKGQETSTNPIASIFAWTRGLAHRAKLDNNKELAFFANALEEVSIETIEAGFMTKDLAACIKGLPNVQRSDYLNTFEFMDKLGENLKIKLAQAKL", "sequence of UniProt P04756 (whole entry, unmodified, looked up)": "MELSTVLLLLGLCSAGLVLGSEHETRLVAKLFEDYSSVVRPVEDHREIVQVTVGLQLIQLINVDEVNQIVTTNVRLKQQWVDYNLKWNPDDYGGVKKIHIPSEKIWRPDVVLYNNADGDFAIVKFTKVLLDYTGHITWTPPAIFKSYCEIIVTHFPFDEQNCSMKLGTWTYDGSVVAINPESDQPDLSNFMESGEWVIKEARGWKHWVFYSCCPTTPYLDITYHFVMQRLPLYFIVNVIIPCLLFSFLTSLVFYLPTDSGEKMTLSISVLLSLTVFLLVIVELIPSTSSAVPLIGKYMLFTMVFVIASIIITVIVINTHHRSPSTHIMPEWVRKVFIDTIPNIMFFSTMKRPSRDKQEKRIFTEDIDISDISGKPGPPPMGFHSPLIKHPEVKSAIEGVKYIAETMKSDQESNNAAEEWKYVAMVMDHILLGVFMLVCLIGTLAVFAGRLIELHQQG", "sequence of UniProt P20782 (whole entry, unmodified, looked up)": "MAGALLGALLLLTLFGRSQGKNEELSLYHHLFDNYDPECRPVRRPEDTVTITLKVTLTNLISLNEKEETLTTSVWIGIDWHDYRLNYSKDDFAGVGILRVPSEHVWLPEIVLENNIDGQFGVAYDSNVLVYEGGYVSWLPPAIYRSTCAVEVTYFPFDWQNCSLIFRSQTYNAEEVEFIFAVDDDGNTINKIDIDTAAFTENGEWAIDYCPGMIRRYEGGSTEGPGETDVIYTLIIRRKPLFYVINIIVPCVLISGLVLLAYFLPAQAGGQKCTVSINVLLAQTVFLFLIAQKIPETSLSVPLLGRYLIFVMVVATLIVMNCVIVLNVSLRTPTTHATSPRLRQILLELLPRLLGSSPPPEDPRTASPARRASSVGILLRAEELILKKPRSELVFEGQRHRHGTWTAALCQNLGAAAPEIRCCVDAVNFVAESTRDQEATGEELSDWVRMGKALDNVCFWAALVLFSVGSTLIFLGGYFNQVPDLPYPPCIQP", "sequence of UniProt Q00987 (whole entry, unmodified, looked up)": "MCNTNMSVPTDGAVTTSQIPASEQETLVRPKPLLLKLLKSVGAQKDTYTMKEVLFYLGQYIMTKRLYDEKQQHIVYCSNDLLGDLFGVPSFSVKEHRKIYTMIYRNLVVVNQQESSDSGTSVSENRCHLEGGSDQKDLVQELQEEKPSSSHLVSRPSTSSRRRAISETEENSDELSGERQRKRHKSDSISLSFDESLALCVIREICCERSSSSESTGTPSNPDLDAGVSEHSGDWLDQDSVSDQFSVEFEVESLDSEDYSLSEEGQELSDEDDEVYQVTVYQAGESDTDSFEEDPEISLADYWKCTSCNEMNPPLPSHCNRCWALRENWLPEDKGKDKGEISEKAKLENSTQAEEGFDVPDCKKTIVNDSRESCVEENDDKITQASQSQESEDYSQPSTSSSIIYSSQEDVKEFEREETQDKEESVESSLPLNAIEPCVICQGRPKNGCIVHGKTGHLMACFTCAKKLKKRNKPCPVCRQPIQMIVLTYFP", "sequence of UniProt P12277 (whole entry, looked up)": "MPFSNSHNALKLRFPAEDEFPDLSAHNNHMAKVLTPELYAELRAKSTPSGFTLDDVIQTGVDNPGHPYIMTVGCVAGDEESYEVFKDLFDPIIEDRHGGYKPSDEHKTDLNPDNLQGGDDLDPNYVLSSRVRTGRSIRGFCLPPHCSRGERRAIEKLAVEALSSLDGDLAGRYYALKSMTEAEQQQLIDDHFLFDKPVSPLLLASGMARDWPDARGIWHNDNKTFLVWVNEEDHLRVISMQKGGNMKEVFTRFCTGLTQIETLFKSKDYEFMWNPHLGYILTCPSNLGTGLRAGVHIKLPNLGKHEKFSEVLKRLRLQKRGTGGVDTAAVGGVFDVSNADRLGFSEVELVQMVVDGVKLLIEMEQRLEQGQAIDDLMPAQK", "sequence of UniProt P02716 (whole entry, unmodified, looked up)": "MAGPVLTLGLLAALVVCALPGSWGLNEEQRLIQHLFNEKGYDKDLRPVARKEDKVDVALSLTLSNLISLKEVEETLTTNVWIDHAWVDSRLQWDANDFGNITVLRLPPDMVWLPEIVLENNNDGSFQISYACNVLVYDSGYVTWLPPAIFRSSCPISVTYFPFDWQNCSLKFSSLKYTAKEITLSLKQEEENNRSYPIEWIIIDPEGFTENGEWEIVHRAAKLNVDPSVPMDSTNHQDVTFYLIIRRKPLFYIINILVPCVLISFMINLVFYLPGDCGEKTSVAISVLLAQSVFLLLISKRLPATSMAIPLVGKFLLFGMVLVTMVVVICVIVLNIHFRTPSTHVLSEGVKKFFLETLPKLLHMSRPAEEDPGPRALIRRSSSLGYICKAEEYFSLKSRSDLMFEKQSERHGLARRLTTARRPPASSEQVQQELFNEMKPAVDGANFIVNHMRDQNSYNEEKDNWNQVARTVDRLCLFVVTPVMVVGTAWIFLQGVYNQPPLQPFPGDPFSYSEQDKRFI"}
{"SMILES": "C[C@@H](Nc1nc(N[C@H](C)C(F)(F)F)nc(-c2cccc(Cl)n2)n1)C(F)(F)F", "tested on": "Isocitrate dehydrogenase [NADP] cytoplasmic (IDH1, Homo sapiens, UniProt O75874, R132C)", "test": "measured: 2-hydroxyglutarate", "test system": "COR-L105", "measurement": "maximal inhibition", "value": "91%"}
{"SMILES": "O=C(Nc1cccc(CO)c1)c1cc(-c2ccccc2)n(-c2ccccc2)n1", "tested on": "Genome polyprotein, NS2B-NS3 protease (dengue virus type 2, UniProt P29990)", "test": "reporter gene", "test system": "HeLa", "conditions": "12.5 µM", "measurement": "inhibition", "value": "55%"}
{"SMILES": "CC(=O)N[C@@H](CC(=O)O)C(=O)N[C@H](C(=O)N[C@@H](C)C(=O)N[C@@H](CC(=O)O)C(=O)COC(=O)c1c(C)cccc1C)[C@@H](C)OCc1ccccc1", "tested on": "CASP7", "test": "enzyme activity, inhibitor", "measurement": "kinact/KI", "value": "557000 M⁻¹ s⁻¹"}
{"SMILES": "CCOC(=O)C(CC)(CCCSCCOCCOCCOCCN)NC(=O)c1ccc(C2CC2)c(Cc2ccc(F)cc2)n1 (stereo not shown)", "tested on": "Cannabinoid receptor 2 (CNR2, Homo sapiens, UniProt P34972)", "test": "cAMP, agonist", "measurement": "Emax", "value": "93%"}
{"SMILES": "CC(=O)N[C@@H](CC(=O)O)C(=O)N[C@@H](CC(C)C)C(=O)N[C@@H](C)C(=O)N[C@@H](CC(=O)O)C(=O)COC(=O)c1c(C)cccc1C", "tested on": "CASP7", "test": "enzyme activity, inhibitor", "measurement": "kinact/KI", "value": "170000 M⁻¹ s⁻¹"}
{"SMILES": "Cc1ccc(-n2ncc3cc(NC(=O)C4CC4)ccc32)cc1", "tested on": "human kinase panel", "test": "binding, KINOMEscan", "conditions": "10000 nM, %Ctrl below 1", "measurement": "number of kinases hit", "value": 0}
{"SMILES": "CNC1C[S+]2CC[S+]3CC[S+](C1)[Ru-4]321([N]=C=S)[n]2c3ccc(OC)cc3c3c4c(c5cc(F)c[n+]1c5c32)C(=O)NC4=O (stereo not shown)", "tested on": "Tyrosine-protein kinase ABL1, phosphorylated (ABL1, Homo sapiens, UniProt P00519, H396P)", "test": "KinomeScan", "conditions": "0.1 µM", "how to read": "relative to: untreated", "measurement": "remaining binding", "value": "98%"}
{"SMILES": "O=C1c2sc(-c3ccc(N4CCC(CO)CC4)nc3F)nc2CCN1c1cccnc1", "tested on": "TAR DNA-binding protein 43, aggregated (TARDBP, Homo sapiens, UniProt Q13148)", "test": "radioligand binding", "test system": "human, FTLD-TDP type B sarkosyl-insoluble extract", "conditions": "26.56 nM", "measurement": "specific binding", "value": "1.86 nM and 1.26 nM"}
{"SMILES": "N#CN1CC[C@H](C(=O)Nc2nc3c(s2)CN(C(=O)CN=[N+]=[N-])CC3)C1", "tested on": "CKB (Homo sapiens, UniProt P12277)", "test": "click pull-down LC-MS/MS", "test system": "HEK293T cells", "measurement": "total spectral count", "value": 1}
{"SMILES": "O=C(N[C@@H](Cn1cc(-c2ccccc2)nn1)C(=O)O)OCC1c2ccccc2-c2ccccc21", "tested on": "E3 ubiquitin-protein ligase Mdm2 (MDM2, Homo sapiens, UniProt Q00987)", "test": "thermal stability, DSF", "conditions": "30 µM", "measurement": "ΔTm", "value": "1.38 °C"}
{"SMILES": "C#CCCC1(CCC(=O)NCC2CN(CCCCCNC(=O)CN(CCN)C(=O)Cn3cnc4c(=O)[nH]c(N)nc43)CCN(CCCCCNC(=O)CN(CCN)C(=O)Cn3cnc4c(=O)[nH]c(N)nc43)CCN(CCCCCNC(=O)CN(CCN)C(=O)Cn3cnc4c(=O)[nH]c(N)nc43)CCN2CCCCCNC(=O)CN(CCN)C(=O)Cn2cnc3c(=O)[nH]c(N)nc32)N=N1 (stereo not shown)", "tested on": "T1, G-quadruplex DNA, G-quadruplex (Homo sapiens)", "test": "FRET melting", "measurement": "change in melting temperature", "value": "15.4 °C"}
{"SMILES": "COC1CN([C@H]2CC[C@H]([C@@]3(C)Oc4c(Cl)cc(C(=O)NCc5c(SC)cc(C)[nH]c5=O)c(C)c4O3)CC2)C1", "test": "RNA-seq, measured: MANSC1", "test system": "human, whole blood", "conditions": "dose not given, 24 h", "how to read": "relative to: pretreatment baseline", "measurement": "log2 fold change", "value": 1.4}
{"SMILES": "O=c1[nH]cnc2c(CN[C@H](CO)CCP(=O)(O)O)c[nH]c12", "tested on": "Hypoxanthine-guanine phosphoribosyltransferase (Trypanosoma cruzi, UniProt Q4DGA3)", "test": "inhibitor, inhibition pattern versus hypoxanthine", "conditions": "pH 8.3, 37 °C, together with: PRPP 1 mM fixed", "measurement": "Kii", "value": "25 ± 1 nM"}
{"SMILES": "Cc1ncsc1-c1ccc(C(C)NC(=O)C2CC(O)CN2C(=O)C(NC(=O)CCCCCCCCCCN2CCCC(Nc3ncc(Cl)c(Nc4ccccc4S(=O)(=O)C(C)C)n3)C2)C(C)(C)C)cc1 (stereo not shown)", "tested on": "22Rv1", "test": "RNA-seq, measured: MND1 mRNA", "conditions": "concentration not given", "how to read": "relative to: DMSO", "measurement": "log2 fold change", "value": -1.22}
{"SMILES": "COC(=O)Cc1cc2c(cc1C(=O)c1ccccc1Br)OCO2", "tested on": "Glutamate receptor 2 (Gria2, Rattus norvegicus, UniProt P19491)", "test": "glutamate-evoked current, whole-cell patch clamp", "test system": "HEK-293T", "conditions": "concentration not given, glutamate alone after washout, together with: glutamate", "measurement": "current amplitude after recovery", "value": "1320 ± 76 pA"}
{"SMILES": "C[N+]1(C)CCSC1", "tested on": "Chrnd/Chrna1/Chrne (Mus musculus, UniProt P02716+P04756+P20782, G173A/S470W)", "test": "ligand binding, agonist, single-channel kinetics", "conditions": "chain A", "how to read": "relative to: wild type over mutant", "measurement": "affinity ratio", "value": 1.3}
{"note": "A few entries again:"}
{"SMILES": "O=C(Nc1cccc(CO)c1)c1cc(-c2ccccc2)n(-c2ccccc2)n1", "tested on": "Genome polyprotein, NS2B-NS3 protease (dengue virus type 2, UniProt P29990)", "test": "reporter gene", "test system": "HeLa", "conditions": "12.5 µM", "measurement": "inhibition", "value": "55%"}
{"SMILES": "Cc1ccc(-n2ncc3cc(NC(=O)C4CC4)ccc32)cc1", "tested on": "human kinase panel", "test": "binding, KINOMEscan", "conditions": "10000 nM, %Ctrl below 1", "measurement": "number of kinases hit", "value": 0}
